Experimental data of several laboratories.
Lines come from different studies, so protocols differ. ± marks the error that the study gave.

| Molecule | target or system | test | system | setting | endpoint | value |
| --- | --- | --- | --- | --- | --- | --- |
| CN[C@@](C)(C[18F])C(=O)O | MDA-MB-468 tumour model | – | host not given, kidney | 15 min, tumour-bearing | tracer uptake | 24 %ID/g |
| C=CC(=O)OCCO | cysteine peptide Ac-RFAACAA-COOH | peptide depletion, DPRA RapidFire-MS/MS | – | 24 h, pH 7.5, room temperature, with: 5.0 µM cysteine peptide | IC50 | 58.2 µM |
| NC[C@@H]1O[C@H](O[C@H]2[C@@H](O)[C@H](O[C@@H]3[C@@H](O)[C@H](N)C[C@H](N)[C@H]3O[C@H]3O[C@@H]4CO[C@@H](CCc5ccccc5)O[C@H]4[C@H](O)[C@H]3N)O[C@@H]2CO)[C@H](N)[C@@H](O)[C@@H]1O | Mycobacterium smegmatis ribosome A1408G | translation, cell-free luciferase synthesis | – | – | IC50 | 3.8 ± 2.4 µg/mL |
| NC[C@@H]1O[C@H](O[C@H]2[C@@H](O)[C@H](O[C@@H]3[C@@H](O)[C@H](N)C[C@H](N)[C@H]3O[C@H]3O[C@H](CO)[C@@H](O)[C@H](O)[C@H]3N)O[C@@H]2CO)[C@H](N)[C@@H](O)[C@@H]1O | Mycobacterium smegmatis 70S ribosome | phenylalanine incorporation, inhibitor, cell-free translation | hybrid ribosomes 0.25 µM | 60 min, 37 °C, with: (UUU)12 mRNA | IC50 | 2.7 µM |
| Cc1cc(Nc2nc(N[C@@H](C)c3ncc(F)cn3)ncc2Cl)n[nH]1 | Stat5a, human | reporter gene, inhibitor, luciferase reporter | PC-3 | 1 h pretreatment, with: human prolactin 10 nM, 16 h | IC50 | 0.15 µM |
| COCc1cnc(C2=NC(C)(C(C)C)C(=O)N2)c(C(=O)O)c1 (centres unmarked) | acetolactate synthase, Secale cereale (feral rye) | enzyme activity, inhibitor, colorimetric acetoin | population without ALS mutation, crude plant extract | 1 h, pH 7, 37 °C, commercial formulation | IC50 | 16 µM |
| Cc1cc(C)cc(C(=O)N(NC(=O)c2ccc3c(c2C)CCCO3)C(C)(C)C)c1 | mAb-19F2 (BALB/c mouse monoclonal antibody) | antibody binding, indirect competitive ELISA | – | – | IC50 | > 1 µg/mL |
| O=C/C=C/c1ccccc1 | cysteine peptide Ac-RFAACAA-COOH | peptide depletion, DPRA RapidFire-MS/MS | – | 24 h, pH 7.5, room temperature, with: 5.0 µM cysteine peptide | IC50 | 1050 µM |
| CN1C(=O)N(c2ccccc2Br)Cc2cnc(Nc3ccc4c(c3)OCC(CO)O4)nc21 (centres unmarked) | TGF-β/SMAD signalling | reporter gene, antagonist | SBE-bla HEK293T | primary qHTS screen, with: TGF-β1 | IC50 | 0.57 µM |
| Oc1cccc2ccccc12 | anti-1-naphthol monoclonal antibody | antibody binding, competitive indirect ELISA | – | pH 6.4 | IC50 | 0.0125 µg/mL |
| C/C=C1\NC(=O)[C@@H](NC(=O)[C@@H](NC(=O)C/C(=C/Cl)CC)C(C)C)[C@@H](C)OC(=O)[C@H](C(C)C)NC(=O)[C@H](Cc2ccc(O)cc2)N(C)C(=O)[C@H](Cc2ccccc2)N2C(=O)[C@H](CC[C@H]2O)NC1=O | bovine trypsin | enzyme activity, inhibitor | – | 30 min, pH 7.4, 22 °C, with: Z-Leu-Arg-Arg-AMC | IC50 | > 20 µM |
| COC[C@@H](NC(C)=O)C(=O)NCc1ccc(COc2ccccc2F)cc1 | voltage-gated sodium channel | peak sodium current, inhibitor, whole-cell patch clamp | CAD | 0 mV from -80 mV holding | IC50 | 4.9 ± 0.9 µM |
| CCCOC1CC(C)C([N+](=O)[O-])=C2N(Cc3ccc(Cl)nc3)CCN21 (centres unmarked) | mAb-19F2 (BALB/c mouse monoclonal antibody) | antibody binding, indirect competitive ELISA | – | – | IC50 | > 1 µg/mL |
| C=Cc1ccccn1 | cysteine peptide Ac-RFAACAA-COOH | peptide depletion, DPRA RapidFire-MS/MS | – | 24 h, pH 7.5, room temperature, with: 5.0 µM cysteine peptide | IC50 | inactive |
| C[C@H](NC(=O)C1CCNCC1)C(=O)Nc1ccc2c(c1)C(=O)c1ccc(NC(=O)[C@H](C)NC(=O)C3CCNCC3)cc1C2=O | HIV-1 nucleocapsid protein | TAR RNA melting, inhibitor | – | – | IC50 | 39.7 ± 3.99 µM |
| CC[C@H](C)[C@@H]1C(=O)O[C@H]1C(=O)N[C@H](C(=O)N[C@@H](Cc1ccccc1)C(=O)OCc1ccccc1)C(C)C | human proteasome β2 subunit | – | – | – | IC50 | 1.78 ± 0.222 µM |
| CCCSc1ccc2nc(NC(=O)OC)[nH]c2c1 | human HDAC class I/II | enzyme activity, inhibitor, HDAC-Glo I/II | HCT-116 | – | IC50 | 9.44 µM |
| COC[C@H](NC(C)=O)C(=O)NCc1ccc(OCc2cccc(F)c2)cc1 | voltage-gated sodium channel | peak sodium current, inhibitor, whole-cell patch clamp | CAD | 0 mV from -80 mV holding | IC50 | 42.9 ± 1.4 µM |
| CC[C@H](C)[C@@H]1C(=O)O[C@H]1C(=O)N[C@@H](CC(C)C)C(=O)N[C@H](C(=O)OCc1ccccc1)C(C)C | human proteasome β2 subunit | – | – | – | IC50 | 2.95 ± 0.135 µM |
| O=C(N/N=C/c1ccc([N+](=O)[O-])o1)c1cc([N+](=O)[O-])cc([N+](=O)[O-])c1O | phenylalanyl-tRNA synthetase, P. aeruginosa | poly-Phe synthesis, aminoacylation-translation | Pseudomonas aeruginosa | – | IC50 | 63.3 µM |
| C[C@H]1CNCCc2ccc(Cl)cc21 | – | – | male Sprague-Dawley rat, plasma | subcutaneous, 0.5 mg/kg, single dose | Cmax | 15.6 ng/mL |
| sodium pervanadate | total protein tyrosine phosphatases (human) | enzyme activity, inhibitor, capillary electrophoresis | A-431 cell lysate | 10 min preincubation | IC50 | 0.1 µM |
| O=C(NC(=O)c1c(F)cccc1F)Nc1cc(Cl)c(Oc2ncc(C(F)(F)F)cc2Cl)c(Cl)c1 | mAb-19F2 (BALB/c mouse monoclonal antibody) | antibody binding, indirect competitive ELISA | – | – | IC50 | > 1 µg/mL |
| CC(C)C[C@@H]1C(=O)O[C@H]1C(=O)N[C@H](C(=O)N[C@H](C(=O)OCc1ccccc1)C(C)C)C(C)C | human proteasome β2 subunit | – | – | – | IC50 | 4.58 ± 0.161 µM |
| NC[C@@H]1O[C@H](O[C@H]2[C@@H](O)[C@H](O[C@@H]3[C@@H](O)[C@H](N)C[C@H](N)[C@H]3O[C@H]3O[C@H](CO)C[C@H](O)[C@H]3N)O[C@@H]2CO)[C@H](N)[C@@H](O)[C@@H]1O | Mycobacterium smegmatis ribosome A1408G | translation, cell-free luciferase synthesis | – | – | IC50 | 0.89 ± 0.4 µg/mL |
| CC[C@H](C)[C@@H]1C(=O)O[C@H]1C(=O)N[C@@H](Cc1ccccc1)C(=O)N[C@@H](Cc1ccccc1)C(=O)OCc1ccccc1 | human proteasome β2 subunit | – | – | – | IC50 | 2.71 ± 0.13 µM |
| FC(F)(F)c1ccc(OCCCOc2c(Cl)cc(OCC=C(Cl)Cl)cc2Cl)nc1 | mAb-19F2 (BALB/c mouse monoclonal antibody) | antibody binding, indirect competitive ELISA | – | – | IC50 | > 1 µg/mL |
| CC[C@H](C)[C@@H]1C(=O)O[C@H]1C(=O)N[C@H](C(=O)N[C@H](C(=O)OCc1ccccc1)C(C)(C)C)C(C)(C)C | human proteasome β2 subunit | – | – | – | IC50 | 3.52 ± 0.109 µM |
| O=C(Nc1ccc(F)cc1)c1ccc(N(Cc2ccc(B(O)O)cn2)Cc2ccco2)nc1 | CXCR1/CXCR2 human | calcium flux, antagonist | human neutrophils | with: IL-8 | IC50 | 0.321 ± 0.096 µM |

A few entries again:
| Molecule | target or system | test | system | setting | endpoint | value |
| --- | --- | --- | --- | --- | --- | --- |
| O=C/C=C/c1ccccc1 | cysteine peptide Ac-RFAACAA-COOH | peptide depletion, DPRA RapidFire-MS/MS | – | 24 h, pH 7.5, room temperature, with: 5.0 µM cysteine peptide | IC50 | 1050 µM |
| CN1C(=O)N(c2ccccc2Br)Cc2cnc(Nc3ccc4c(c3)OCC(CO)O4)nc21 (centres unmarked) | TGF-β/SMAD signalling | reporter gene, antagonist | SBE-bla HEK293T | primary qHTS screen, with: TGF-β1 | IC50 | 0.57 µM |
| Oc1cccc2ccccc12 | anti-1-naphthol monoclonal antibody | antibody binding, competitive indirect ELISA | – | pH 6.4 | IC50 | 0.0125 µg/mL |
| C/C=C1\NC(=O)[C@@H](NC(=O)[C@@H](NC(=O)C/C(=C/Cl)CC)C(C)C)[C@@H](C)OC(=O)[C@H](C(C)C)NC(=O)[C@H](Cc2ccc(O)cc2)N(C)C(=O)[C@H](Cc2ccccc2)N2C(=O)[C@H](CC[C@H]2O)NC1=O | bovine trypsin | enzyme activity, inhibitor | – | 30 min, pH 7.4, 22 °C, with: Z-Leu-Arg-Arg-AMC | IC50 | > 20 µM |
